Published values collected from several papers.
Each line is one published result; not all experiments were run side by side. ± gives the spread as reported.
uncharacterized protein: uncharacterized protein (Streptococcus mutans serotype c, UniProt Q8DS94)
Chain of UniProt P54292 (whole entry, looked up): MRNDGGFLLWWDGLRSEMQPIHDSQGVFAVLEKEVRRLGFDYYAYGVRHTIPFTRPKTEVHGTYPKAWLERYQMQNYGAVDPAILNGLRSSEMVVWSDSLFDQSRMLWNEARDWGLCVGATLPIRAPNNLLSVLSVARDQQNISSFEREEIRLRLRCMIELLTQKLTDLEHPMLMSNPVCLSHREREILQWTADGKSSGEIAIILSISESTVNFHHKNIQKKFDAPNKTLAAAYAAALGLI
Chain of UniProt P20813 (whole entry, looked up): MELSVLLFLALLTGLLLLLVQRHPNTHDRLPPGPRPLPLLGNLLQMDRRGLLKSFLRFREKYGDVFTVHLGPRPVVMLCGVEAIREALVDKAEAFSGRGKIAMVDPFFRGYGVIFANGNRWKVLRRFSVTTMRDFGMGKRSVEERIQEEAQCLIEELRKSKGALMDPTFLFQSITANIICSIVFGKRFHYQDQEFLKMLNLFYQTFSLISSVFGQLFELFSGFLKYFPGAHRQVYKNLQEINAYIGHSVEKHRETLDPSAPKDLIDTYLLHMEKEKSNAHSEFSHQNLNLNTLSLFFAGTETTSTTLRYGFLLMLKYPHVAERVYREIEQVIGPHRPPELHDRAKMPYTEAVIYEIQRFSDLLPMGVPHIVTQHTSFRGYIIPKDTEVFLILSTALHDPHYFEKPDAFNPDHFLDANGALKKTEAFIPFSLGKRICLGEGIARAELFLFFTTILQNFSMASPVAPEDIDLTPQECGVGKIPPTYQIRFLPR
Chain of UniProt P25090 (whole entry, looked up): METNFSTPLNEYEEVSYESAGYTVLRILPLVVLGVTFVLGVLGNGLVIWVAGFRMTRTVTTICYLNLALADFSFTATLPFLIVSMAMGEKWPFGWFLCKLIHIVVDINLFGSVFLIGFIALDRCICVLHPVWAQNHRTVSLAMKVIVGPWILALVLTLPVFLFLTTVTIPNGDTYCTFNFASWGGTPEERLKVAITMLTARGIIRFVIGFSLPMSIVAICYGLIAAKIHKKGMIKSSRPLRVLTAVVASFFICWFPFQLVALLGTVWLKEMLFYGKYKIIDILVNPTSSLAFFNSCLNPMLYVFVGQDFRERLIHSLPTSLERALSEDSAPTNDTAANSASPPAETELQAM
Chain of UniProt P50391 (whole entry, looked up): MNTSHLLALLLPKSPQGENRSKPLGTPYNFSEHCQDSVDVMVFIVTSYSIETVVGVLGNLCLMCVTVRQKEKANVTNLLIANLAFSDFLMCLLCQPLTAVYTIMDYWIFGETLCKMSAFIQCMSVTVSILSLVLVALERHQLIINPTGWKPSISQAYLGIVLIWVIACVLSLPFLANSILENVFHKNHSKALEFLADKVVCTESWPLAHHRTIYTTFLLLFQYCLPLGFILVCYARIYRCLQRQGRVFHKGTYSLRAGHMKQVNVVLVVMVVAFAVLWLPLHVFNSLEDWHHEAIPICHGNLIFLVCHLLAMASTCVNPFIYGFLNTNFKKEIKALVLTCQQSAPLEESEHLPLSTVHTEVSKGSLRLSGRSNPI
Chain of UniProt Q9VNB5 (whole entry, looked up): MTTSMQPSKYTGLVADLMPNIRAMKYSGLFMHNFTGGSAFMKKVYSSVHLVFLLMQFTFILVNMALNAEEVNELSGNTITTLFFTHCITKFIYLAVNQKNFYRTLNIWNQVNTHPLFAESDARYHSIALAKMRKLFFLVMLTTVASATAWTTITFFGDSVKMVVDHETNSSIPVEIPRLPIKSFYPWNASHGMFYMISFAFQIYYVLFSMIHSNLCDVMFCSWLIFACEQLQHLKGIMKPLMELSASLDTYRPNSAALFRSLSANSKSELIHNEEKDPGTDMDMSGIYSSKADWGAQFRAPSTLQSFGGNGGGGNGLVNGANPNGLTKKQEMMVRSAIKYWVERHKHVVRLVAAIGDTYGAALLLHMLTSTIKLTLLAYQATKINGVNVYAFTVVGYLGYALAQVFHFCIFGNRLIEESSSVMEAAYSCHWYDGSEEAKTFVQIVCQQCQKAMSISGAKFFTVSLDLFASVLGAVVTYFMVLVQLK
Chain of UniProt P25103 (whole entry, looked up): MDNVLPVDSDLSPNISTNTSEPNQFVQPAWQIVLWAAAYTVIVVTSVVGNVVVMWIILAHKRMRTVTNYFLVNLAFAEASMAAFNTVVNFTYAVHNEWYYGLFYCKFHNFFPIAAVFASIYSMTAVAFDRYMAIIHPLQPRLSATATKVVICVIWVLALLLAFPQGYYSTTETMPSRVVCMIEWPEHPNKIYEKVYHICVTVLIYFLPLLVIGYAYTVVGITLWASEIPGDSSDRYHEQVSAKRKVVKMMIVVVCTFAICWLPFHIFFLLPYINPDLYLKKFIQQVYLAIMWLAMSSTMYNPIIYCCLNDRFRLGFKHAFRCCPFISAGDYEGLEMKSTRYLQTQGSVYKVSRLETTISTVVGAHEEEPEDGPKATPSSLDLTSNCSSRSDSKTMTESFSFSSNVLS

For `O=C(NC1CCCC1=O)C1CCC1` (stereo not shown), the EC50 was 5940 nM (HTH-type quorum-sensing regulator RhlR (rhlR, Pseudomonas aeruginosa, UniProt P54292); reporter gene, agonist).
For `CCc1ccc(NC(=O)CSc2nnc(-c3ccncc3)n2C2CC2)cc1`, the EC50 was 37000 nM (Orco (Drosophila melanogaster, UniProt Q9VNB5); calcium mobilization, agonist; HEK293 expressing Orco).
`C[C@H](NC(=O)[C@H](CCC(N)=O)NC(=O)[C@H](C)NC(=O)[C@H](CCCCN)NC(=O)[C@H](CCC(N)=O)NC(=O)[C@H](C)NC(=O)[C@H](CCCCN)NC(=O)[C@H](CCC(N)=O)NC(=O)[C@H](C)NC(=O)[C@H](CCC(N)=O)NC(=O)[C@H](CCCCN)NC(=O)[C@H](C)NC(=O)[C@H](CCC(N)=O)NC(=O)[C@H](CCCCN)NC(=O)[C@H](C)NC(=O)[C@H](CCC(N)=O)NC(=O)[C@H](C)NC(=O)[C@H](CCCCN)NC(=O)[C@H](CCC(N)=O)NC(=O)[C@H](C)NC(=O)[C@H](CCCCN)NC(=O)[C@H](CO)NC(=O)[C@H](Cc1ccc(O)cc1)NC(=O)CNC(=O)CNC(=O)CN)C(=O)N[C@@H](CCCCN)C(=O)N[C@@H](CCC(N)=O)C(=O)N[C@@H](C)C(=O)N[C@@H](CCCCN)C(=O)N[C@@H](CCC(N)=O)C(=O)O` gave a Kd of 15 nM (binding, SPR two-state model; rVλ6Wil fibrils).
The EC50 of `CC[C@H](C)[C@H](NC(=O)[C@H](CC(N)=O)NC(=O)[C@H](Cc1c[nH]cn1)NC(=O)[C@@H](NC(=O)[C@@H](NC(=O)[C@H](CCCNC(=N)N)NC(=O)[C@@H](NC(=O)[C@@H](N)CCC(=O)O)[C@@H](C)CC)[C@@H](C)CC)[C@@H](C)O)C(=O)N[C@@H](Cc1ccccc1)C(=O)N[C@@H](Cc1ccccc1)C(=O)N[C@@H](CC(N)=O)C(=O)N[C@@H](Cc1ccccc1)C(=O)N[C@@H](Cc1ccccc1)C(=O)N[C@@H](CCCCN)C(=O)N[C@@H](CCCNC(=N)N)C(=O)N[C@@H](CCCNC(=N)N)C(=O)O` is reported as greater than 10000 nM (histidine kinase ComD (Streptococcus pneumoniae serotype 2, UniProt A0A0H2ZM50); reporter gene, agonist; Streptococcus pneumoniae, D39 comX::lacZ; 30 min, pH 7.3, 37 °C).
`CC(=O)N[C@@H](CCCNC(=N)N)C(=O)N[C@@H](Cc1ccc(O)cc1)C(=O)N[C@@H](CCCN/C(N)=N/C(=O)NCCCCN)C(=O)N[C@@H](CC(C)C)C(=O)N[C@@H](CCCNC(=N)N)C(=O)N[C@@H](Cc1ccc(O)cc1)C(N)=O` gave an EC50 of 187 nM (Neuropeptide Y receptor type 4 (NPY4R, Homo sapiens, UniProt P50391); calcium signal, agonist).
The EC50 of `N=C(N)NCCC[C@H](N)C(=O)N1CCC[C@H]1C(=O)N[C@@H](CCCCN)C(=O)N1CCC[C@H]1C(=O)N[C@@H](CCC(N)=O)C(=O)N[C@@H](CCC(N)=O)C(=O)N[C@@H](Cc1ccccc1)C(=O)N[C@@H](Cc1ccccc1)C(=O)NCC(N)=O` is reported as 7300 nM (Substance-P receptor (TACR1, Homo sapiens, UniProt P25103); calcium signal, agonist, fluorescence).
`CC[C@H](C)[C@H](NC(=O)[C@H](CCCCN)NC(=O)[C@H](CC(C)C)NC(=O)[C@H](Cc1ccccc1)NC(=O)[C@H](Cc1ccccc1)NC(=O)CNC(=O)[C@@H]1CCCN1C(=O)[C@H](CO)NC(=O)[C@H](CO)NC(=O)[C@H](CC(=O)O)NC(=O)[C@@H](N)CC(=O)O)C(=O)N[C@H](C(=O)N[C@@H](CCCCN)C(=O)N[C@@H](CC(N)=O)C(=O)N[C@H](C(=O)N1CCC[C@H]1C(=O)N[C@@H](CCCNC(=N)N)C(=O)N[C@@H](CC(C)C)C(N)=O)C(C)C)[C@@H](C)O` gave an EC50 of roughly 8 nM (Ecdysis triggering hormone receptor A (Aedes aegypti, UniProt A7J264)).
`CCCCCc1cc(O)c2c(c1)OC(C)(C)C1CCC(C)=CC21` (single isomer, unassigned; (-)) has a Ki of 250 ± 43 nM (Cytochrome P450 2B6 (CYP2B6, Homo sapiens, UniProt P20813); inhibitor; HEK293 overexpressing CYP2B6, recombinant microsomes; pH 7.4, corrected for incubation binding, together with: bupropion 12.5 to 100 µM).
With `CC[C@H](C)[C@H](NC(=O)[C@@H]1CCC(=O)N1)C(=O)N[C@H](C(=O)N[C@@H](Cc1ccccc1)C(=O)N[C@@H](CO)C(=O)N[C@@H](CCCNC(=N)N)C(=O)N[C@@H](CC(=O)O)C(=O)N[C@@H](Cc1c[nH]c2ccccc12)C(=O)N[C@@H](CO)C(=O)NCC(N)=O)[C@@H](C)O` the EC50 was 1070 ± 330 nM (Adipokinetic hormone receptor (Bombyx mori, UniProt Q8T6U9)).
For `N=C(N)NCCC[C@@H]1NC(=O)[C@H](CCCCNC(=O)CNC(=O)CNC(=O)CNC(=O)CC[C@H](NC(=O)CCOCCOCCOCCOCCNC(=O)CC[C@H](NC(=O)CN2CCN(CC(=O)O)CCN(CC(=O)O)CCN(CC(=O)O)CC2)C(=O)NCCOCCOCCOCCOCCC(=O)N[C@@H](CCC(=O)NCC(=O)NCC(=O)NCC(=O)NCCCC[C@@H]2NC(=O)[C@@H](Cc3ccccc3)NC(=O)[C@H](CC(=O)O)NC(=O)CNC(=O)[C@H](CCCNC(=N)N)NC2=O)C(=O)NCC(=O)NCC(=O)NCC(=O)NCCCC[C@@H]2NC(=O)[C@@H](Cc3ccccc3)NC(=O)[C@H](CC(=O)O)NC(=O)CNC(=O)[C@H](CCCNC(=N)N)NC2=O)C(=O)NCC(=O)NCC(=O)NCC(=O)NCCCC[C@@H]2NC(=O)[C@@H](Cc3ccccc3)NC(=O)[C@H](CC(=O)O)NC(=O)CNC(=O)[C@H](CCCNC(=N)N)NC2=O)NC(=O)[C@@H](Cc2ccccc2)NC(=O)[C@H](CC(=O)O)NC(=O)CNC1=O` [indium-111 labelled], the tissue uptake was 1.54 ± 0.25 %ID/g (athymic nude mice, female, U-87 MG glioma xenograft, spleen; intravenous, 3 µCi, 4 h).
With `CC(C)C[C@H](NC(=O)[C@H](CO)NC(=O)CN)C(=O)N[C@@H](CO)C(=O)N[C@H](C(=O)N[C@@H](Cc1ccccc1)C(=O)N[C@@H](Cc1ccccc1)C(=O)N[C@@H](CCCNC(=N)N)C(=O)N[C@@H](CC(C)C)C(=O)N[C@@H](Cc1ccccc1)C(=O)N[C@@H](CC(N)=O)C(=O)N[C@@H](CCCNC(=N)N)C(=O)N[C@@H](CO)C(=O)N[C@@H](Cc1ccccc1)C(=O)N[C@H](C(=O)N[C@@H](CCC(N)=O)C(=O)N[C@@H](C)C(=O)O)[C@@H](C)O)[C@@H](C)O` the EC50 was 4.8 nM (uncharacterized protein; Streptococcus mutans).
The EC50 of `C#Cc1cncc([C@@H]2CCCCN2)c1` is reported as 100 nM (Acetylcholine receptor subunit alpha-type acr-16 (Ascaris suum, UniProt F1KYJ9); ion current, agonist, two-electrode voltage clamp; oocytes).
With `CC(C)C[C@H](NC(=O)[C@H](C)NC(=O)[C@H](CCC(N)=O)NC(=O)[C@@H](NC(=O)[C@H](Cc1ccccc1)NC(=O)[C@H](CO)NC(=O)[C@H](CCCNC(=N)N)NC(=O)[C@H](CC(N)=O)NC(=O)[C@H](Cc1ccccc1)NC(=O)[C@H](CC(C)C)NC(=O)[C@H](CCCNC(=N)N)NC(=O)[C@H](Cc1ccccc1)NC(=O)[C@H](Cc1ccccc1)NC(=O)[C@@H](NC(=O)[C@H](CO)NC(=O)[C@H](CC(C)C)NC(=O)[C@@H](CO)NC(=O)CNC(=O)[C@@H](N)CO)[C@@H](C)O)[C@@H](C)O)C(=O)NCC(=O)N[C@@H](CCCCN)C(=O)O` the EC50 was 160 nM (uncharacterized protein; Streptococcus mutans).
`N=C(N)NCCC[C@@H]1NC(=O)[C@H](CCCCNC(=O)CCOCCOCCOCCOCCNC(=O)CC[C@H](NC(=O)CCOCCOCCOCCOCCNC(=O)CC[C@H](NC(=O)CN2CCN(CC(=O)O)CCN(CC(=O)O)CCN(CC(=O)O)CC2)C(=O)NCCOCCOCCOCCOCCC(=O)N[C@@H](CCC(=O)NCCOCCOCCOCCOCCC(=O)NCCCC[C@@H]2NC(=O)[C@@H](Cc3ccccc3)NC(=O)[C@H](CC(=O)O)NC(=O)CNC(=O)[C@H](CCCNC(=N)N)NC2=O)C(=O)NCCOCCOCCOCCOCCC(=O)NCCCC[C@@H]2NC(=O)[C@@H](Cc3ccccc3)NC(=O)[C@H](CC(=O)O)NC(=O)CNC(=O)[C@H](CCCNC(=N)N)NC2=O)C(=O)NCCOCCOCCOCCOCCC(=O)NCCCC[C@@H]2NC(=O)[C@@H](Cc3ccccc3)NC(=O)[C@H](CC(=O)O)NC(=O)CNC(=O)[C@H](CCCNC(=N)N)NC2=O)NC(=O)[C@@H](Cc2ccccc2)NC(=O)[C@H](CC(=O)O)NC(=O)CNC1=O` [indium-111 labelled] — result for “tumour to muscle ratio”: 13.5 ± 3.64 (female athymic nude mouse; intravenous, 3 µCi, 72 h, U-87 MG glioma xenograft; reference: tumour over muscle).
With `CC(C)C[C@H](NC(=O)[C@H](CO)NC(=O)CNC(=O)[C@@H](N)CO)C(=O)N[C@@H](CO)C(=O)N[C@H](C(=O)N[C@@H](Cc1ccccc1)C(=O)N[C@@H](Cc1ccccc1)C(=O)N[C@@H](CCCNC(=N)N)C(=O)N[C@@H](CC(C)C)C(=O)N[C@@H](Cc1ccccc1)C(=O)N[C@@H](CC(N)=O)C(=O)N[C@@H](CCCNC(=N)N)C(=O)N[C@@H](CO)C(=O)N[C@@H](Cc1ccccc1)C(=O)N[C@@H](C(=O)N[C@@H](CCC(N)=O)C(=O)N[C@@H](C)C(=O)O)[C@H](C)O)[C@@H](C)O` the EC50 was greater than 1000 nM (uncharacterized protein; Streptococcus mutans).
With `CSCC[C@H](NC=O)C(=O)N[C@@H](CCC(=O)O)C(=O)N[C@@H](Cc1ccccc1)C(=O)N[C@H](C(=O)N[C@@H](C)C(=O)N[C@@H](CCCCN)C(=O)N[C@@H](CC(C)C)C(=O)N[C@@H](Cc1ccccc1)C(=O)N[C@@H](CCCCN)C(=O)N[C@@H](Cc1ccccc1)C(=O)N[C@@H](Cc1ccccc1)C(=O)N[C@@H](CCCCN)C(=O)N[C@@H](CC(=O)O)C(=O)N[C@@H](CC(C)C)C(=O)N[C@@H](CC(C)C)C(=O)NCC(=O)N[C@@H](CCCCN)C(=O)N[C@@H](Cc1ccccc1)C(=O)N[C@@H](CC(C)C)C(=O)NCC(=O)N[C@@H](CC(N)=O)C(=O)N[C@@H](CC(N)=O)C(=O)O)C(C)C` the EC50 was 2.14 nM (N-formyl peptide receptor 2 (FPR2, Homo sapiens, UniProt P25090); calcium flux, agonist, flow cytometry, Fluo-3; 37 °C).

A few entries again:
For `O=C(NC1CCCC1=O)C1CCC1` (stereo not shown), the EC50 was 5940 nM (HTH-type quorum-sensing regulator RhlR (rhlR, Pseudomonas aeruginosa, UniProt P54292); reporter gene, agonist).
For `CCc1ccc(NC(=O)CSc2nnc(-c3ccncc3)n2C2CC2)cc1`, the EC50 was 37000 nM (Orco (Drosophila melanogaster, UniProt Q9VNB5); calcium mobilization, agonist; HEK293 expressing Orco).
